Experimental data collected from several papers.
Each line is one published result; not all experiments were run side by side. “And” joins repeats or separate records; there may be more than shown. ± marks the error that the study gave.
UniProt Q9LMA8, sequence (whole entry, looked up): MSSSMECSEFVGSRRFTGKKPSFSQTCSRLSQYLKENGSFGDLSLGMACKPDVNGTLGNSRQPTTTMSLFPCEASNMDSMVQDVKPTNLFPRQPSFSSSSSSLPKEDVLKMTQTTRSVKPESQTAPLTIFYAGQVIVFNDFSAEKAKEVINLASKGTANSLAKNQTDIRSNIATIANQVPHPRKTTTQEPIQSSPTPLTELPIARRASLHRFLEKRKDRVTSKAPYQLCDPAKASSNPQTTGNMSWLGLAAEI
UniProt O04197, sequence (whole entry, looked up): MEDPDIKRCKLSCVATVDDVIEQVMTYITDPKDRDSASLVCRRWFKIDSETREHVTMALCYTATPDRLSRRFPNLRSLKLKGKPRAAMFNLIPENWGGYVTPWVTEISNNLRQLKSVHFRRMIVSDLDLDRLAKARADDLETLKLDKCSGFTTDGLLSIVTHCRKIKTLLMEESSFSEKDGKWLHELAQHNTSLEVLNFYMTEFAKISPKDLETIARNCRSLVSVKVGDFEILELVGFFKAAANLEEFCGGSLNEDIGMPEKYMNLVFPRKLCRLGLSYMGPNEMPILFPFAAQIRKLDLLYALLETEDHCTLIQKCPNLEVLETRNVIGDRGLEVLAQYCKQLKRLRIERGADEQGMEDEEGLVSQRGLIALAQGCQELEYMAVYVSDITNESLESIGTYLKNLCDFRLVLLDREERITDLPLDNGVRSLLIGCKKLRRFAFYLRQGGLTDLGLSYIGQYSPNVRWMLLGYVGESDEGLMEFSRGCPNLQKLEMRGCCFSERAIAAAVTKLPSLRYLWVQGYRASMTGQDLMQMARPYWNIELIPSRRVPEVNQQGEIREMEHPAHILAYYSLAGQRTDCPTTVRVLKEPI

SMILES | tested on | test | system | setting | scale | quantity | result
CC[C@H](C)[C@H](NC(=O)[C@H](Cc1ccccc1)NC(=O)[C@H](CC(=O)O)NC(=O)[C@H](CCCCN)NC(=O)[C@H](C)NC(=O)[C@H](CCCCN)NC(=O)[C@H](CC(N)=O)NC(=O)[C@H](CC(C)C)NC(=O)[C@H](Cc1c[nH]c2ccccc12)NC(=O)[C@H](CCC(=O)O)NC(=O)[C@H](CCCCN)NC(=O)[C@H](Cc1c[nH]c2ccccc12)NC(=O)CNC(=O)[C@H](C)N)C(=O)N[C@@H](CCCCN)C(=O)N[C@@H](CCC(=O)O)C(=O)N[C@@H](CCCCN)C(=O)NCC(=O)N[C@@H](CC(C)C)C(=O)NCC(=O)N[C@@H](CCSC)C(=O)N[C@@H](CC(C)C)C(=O)N[C@@H](CO)C(=O)N[C@@H](C)C(=O)N[C@@H](C)C(=O)N[C@@H](C)C(=O)N[C@@H](CC(N)=O)C(=O)N[C@@H](C)C(=O)N[C@@H](C)C(=O)N[C@@H](CC(C)C)C(=O)N[C@@H](CC(N)=O)C(=O)O | Lucilia cuprina |  |  | thorax injection, 24 h |  | LD50 | 12.1 ± 3.3 nmol/g
COc1ccc(-c2cnnn2-c2cc(OC)c(OC)c(OC)c2)cc1N | MCF-10A | cytotoxicity, nuclei counting |  | 24 h |  | EC50 | 8.85 ± 2.47 nM
CC(C)C[C@H](NC(=O)[C@H](C)NC(=O)CNC(=O)[C@H](C)NC(=O)CNC(=O)[C@H](Cc1c[nH]cn1)NC(=O)[C@H](CCCCN)NC(=O)[C@H](CC(C)C)NC(=O)[C@H](C)NC(=O)[C@H](CCCCN)NC(=O)[C@H](CCCNC(=N)N)NC(=O)[C@@H](NC(=O)[C@H](CC(C)C)NC(=O)[C@H](CCCCN)NC(=O)[C@H](CCCCN)NC(=O)[C@H](CC(C)C)NC(=O)[C@H](CCCCN)NC(=O)[C@H](CCCCN)NC(=O)[C@H](CCCNC(=N)N)NC(=O)[C@H](Cc1c[nH]c2ccccc12)NC(=O)[C@H](CCCCN)NC(=O)[C@H](CCCNC(=N)N)NC(=O)[C@@H](N)CCCCN)C(C)C)C(=O)N[C@@H](CC(C)C)C(=O)N[C@@H](CO)C(N)=O | Drosophila melanogaster | calcium response, calcium imaging | class III da neurons, ppk1.9-Gal4 UAS-GCaMP6f |  |  | EC50 | 20700 nM
CC(C)Oc1ccc(-n2cnc3cc(/C=C\c4ccc(C(C)(C)O)cc4)ccc32)cc1 | Lassa virus |  | HeLa, clade IV Josiah |  |  | EC50 | 260 ± 190 nM
CC(C)C[C@H](NC(=O)[C@H](CCCCN)NC(=O)[C@H](Cc1c[nH]c2ccccc12)NC(=O)[C@H](CCCCN)NC(=O)[C@@H]1CSSC[C@@H]2NC(=O)[C@H](CCC(=O)O)NC(=O)[C@H](CC(N)=O)NC(=O)[C@H](CCCCN)NC(=O)CNC(=O)[C@@H]3CCCN3C(=O)[C@H]([C@@H](C)O)NC(=O)[C@@H]3CSSC[C@H](NC(=O)[C@H](C(C)C)NC(=O)[C@H](CCCNC(=N)N)NC(=O)[C@H](CC(N)=O)NC(=O)[C@@H]4CCCN4C(=O)[C@H](CSSC[C@H](NC(=O)[C@H](C)N)C(=O)N[C@@H](CCCCN)C(=O)NCC(=O)N[C@@H](C(C)C)C(=O)N[C@@H](Cc4ccccc4)C(=O)N[C@@H](CC(=O)O)C(=O)N[C@@H](C)C(=O)N3)NC2=O)C(=O)N[C@@H](CO)C(=O)N[C@@H](CC(=O)O)C(=O)N[C@@H](CCCCN)C(=O)N[C@@H](Cc2c[nH]cn2)C(=O)N[C@@H](CCCCN)C(=O)N[C@@H](Cc2c[nH]c3ccccc23)C(=O)N1)C(N)=O | Nav1.4 (rat) | sodium current, inhibitor, two-electrode voltage clamp | Xenopus laevis oocytes | 1 µM, pH 7.4, holding potential -90 mV |  | inhibition | 17.6 ± 1.9%
CCC1C=C(C(=O)NC2(C(=O)O)CC2CC)C2CCC(=O)C2C1 (stereo not drawn) | COI1/TIFY10A, JAZ1 degron peptide (Arabidopsis thaliana, UniProt O04197+Q9LMA8) | saturation binding |  | COI1-ASK1 with JAZ1 degron peptide |  | Kd | 108 ± 29 nM
CC[C@H](C)[C@@H]1NC(=O)[C@H](CCCNC(=N)N)NC(=O)[C@H](CO)NC(=O)[C@H](CCC(=O)O)NC(=O)[C@H](CC(=O)O)NC(=O)CNC(=O)CNC(=O)[C@H]([C@@H](C)O)NC(=O)[C@H](Cc2ccccc2)NC(=O)[C@H](CO)NC(=O)[C@H]([C@@H](C)O)NC(=O)[C@H](C)NC(=O)[C@@H]2CSSC[C@@H](C(=O)N[C@@H](Cc3ccc(O)cc3)C(=O)N[C@@H](Cc3ccccc3)C(=O)N[C@H](C(=O)N[C@H](C(=O)NCC(=O)O)[C@@H](C)O)[C@@H](C)O)NC(=O)[C@H]([C@@H](C)O)NC(=O)[C@H](CSSC[C@H](NC(=O)[C@H](CCC(=O)O)NC(=O)[C@H](CO)NC(=O)[C@H](CCCCN)NC(=O)[C@H](Cc3ccc(O)cc3)NC(=O)[C@@H]3CCCN3C(=O)[C@H](Cc3ccccc3)NC(=O)[C@H](CCCCN)NC(=O)[C@H](CCCNC(=N)N)NC(=O)[C@H](CCCCN)NC(=O)[C@H](CCCCN)NC(=O)[C@H](Cc3ccc(O)cc3)NC(=O)[C@@H]3CCCN3C(=O)[C@@H](NC(=O)[C@H](CC(=O)O)NC(=O)[C@H](CCCCN)NC(=O)[C@H](CCCCN)NC(=O)[C@@H](NC(=O)[C@@H](NC(=O)[C@@H](N)CCC(=O)O)C(C)C)[C@@H](C)CC)[C@@H](C)O)C(=O)N[C@@H](CC(C)C)C(=O)N[C@@H](CCCCN)C(=O)N[C@@H](C)C(=O)N2)NC(=O)[C@H](CCCCN)NC(=O)[C@H](Cc2ccccc2)NC(=O)[C@H](Cc2ccccc2)NC(=O)CNC(=O)[C@@H]2CCCN2C(=O)[C@H](CCCCN)NC(=O)CNC(=O)[C@H](CCC(=O)O)NC(=O)[C@H](CCC(N)=O)NC1=O | CA1 pyramidal neurons, mouse brain slices | patch clamp |  | 10 µM, together with: 40 pA depolarizing current |  | spiking frequency | ~20 Hz
[N-]=[N+]=N[C@]1(CO)O[C@@H](n2ccc(N)nc2=O)C(F)(F)[C@@H]1O | Zaire ebolavirus | viral replication | Mayinga, recombinant |  |  | EC50 | 300 ± 20 nM
CC[C@H](C)[C@H](NC(=O)[C@H](Cc1ccccc1)NC(=O)[C@H](CC(=O)O)NC(=O)[C@H](CCCCN)NC(=O)[C@H](C)NC(=O)[C@H](CCCCN)NC(=O)[C@H](CC(N)=O)NC(=O)[C@H](CC(C)C)NC(=O)[C@H](Cc1c[nH]c2ccccc12)NC(=O)[C@H](CCC(=O)O)NC(=O)[C@H](CCCCN)NC(=O)[C@@H](NC(=O)CN)[C@@H](C)O)C(=O)N[C@@H](CCCCN)C(=O)N[C@@H](CCC(=O)O)C(=O)N[C@@H](CCCCN)C(=O)NCC(=O)N[C@@H](CC(C)C)C(=O)NCC(=O)N[C@@H](CCSC)C(=O)N[C@@H](CC(C)C)C(=O)N[C@@H](CO)C(=O)N[C@@H](C)C(=O)N[C@@H](C)C(=O)N[C@@H](C)C(=O)N[C@@H](CC(N)=O)C(=O)N[C@@H](C)C(=O)N[C@@H](C)C(=O)N[C@@H](CC(C)C)C(=O)N[C@@H](CC(N)=O)C(=O)O | Lucilia cuprina |  |  | thorax injection, 24 h |  | LD50 | 41.7 ± 18.3 nmol/g
CC(C)C[C@@H]1NC(=O)[C@H](CCCNC(=N)N)NC(=O)[C@@H]2CCCN2C(=O)[C@@H]2CSSC[C@H](NC(=O)CNC(=O)[C@@H]3CCCN3C(=O)[C@H](CCCCN)NC(=O)[C@H](CC(=O)O)NC(=O)[C@@H](NC(=O)CN)C(C)C)C(=O)N[C@@H](CCCNC(=N)N)C(=O)N[C@@H](Cc3ccc(O)cc3)C(=O)N[C@@H](CC(C)C)C(=O)N[C@@H](Cc3ccccc3)C(=O)NCC(=O)NCC(=O)N[C@H]3CSSC[C@H](NC(=O)CNC1=O)C(=O)N[C@@H](CCCCN)C(=O)NCC(=O)N[C@@H](CCCCN)C(=O)NCC(=O)N[C@@H](Cc1c[nH]cn1)C(=O)N[C@@H](CC(=O)O)C(=O)N[C@@H](Cc1ccc(O)cc1)C(=O)N[C@H](C(=O)N[C@@H](C)C(=O)N[C@@H](Cc1c[nH]c4ccccc14)C(=O)N[C@@H](CC(=O)O)C(=O)NCC(=O)N[C@H](C(=O)N[C@@H](Cc1ccccc1)C(=O)N[C@@H](CO)C(=O)N[C@@H](CC(=O)O)C(=O)O)[C@@H](C)O)CSSC[C@H](NC(=O)[C@H](CC(=O)O)NC(=O)[C@H](CC(=O)O)NC(=O)[C@H](CC(=O)O)NC(=O)[C@H](CO)NC(=O)[C@H](CCCCN)NC3=O)C(=O)N2 | nAChR subtypes (human and rat) | two-electrode voltage clamp | Xenopus oocytes | 1 µM, together with: acetylcholine |  | acetylcholine-evoked current | no effect
O=c1ccn(C2OC(F)(CO)C(O)C2O)c(=O)[nH]1 (stereo not drawn) | Lassa virus |  | HeLa, clade II Nigeria-322 |  |  | EC50 | 2140 ± 200 nM
Cc1ccc(NS(=O)(=O)c2c(C(=O)N3CCCCCC3)c(C)n(C)c2C)c(Cl)c1 | Monkeypox virus | viral infection | replication-deficient | 0.412 µM, 60 h | baseline: untreated | infection | 9.77% and 8.65% and 7.9%

Excerpt of the above:
SMILES | tested on | test | system | setting | scale | quantity | result
Cc1ccc(NS(=O)(=O)c2c(C(=O)N3CCCCCC3)c(C)n(C)c2C)c(Cl)c1 | Monkeypox virus | viral infection | replication-deficient | 0.412 µM, 60 h | baseline: untreated | infection | 9.77% and 8.65% and 7.9%
